# Assay results collected from several papers.
# Compare with care: the assays were run in different laboratories. Numbers after ± are the reported error.
Structure (SMILES),cell line,effect on,technique,time,setting,CC50
O=C(NCc1ccc(F)c(F)c1)c1cn(Cc2ccc(F)cc2)cc(O)c1=O,HFF,cell growth or viability,MTS,7 days,,17 µM
c1csc(CNCC23C4CCC5C4C4C(CCC42)C53)c1,dog cells,cytotoxicity,,3 (unit not given),,30 µM
COc1cc(/C=C/c2ccc3c(c2)[C@@H](c2cc(O)cc(O)c2)[C@H](c2ccc(O)cc2)O3)cc(OC)c1,dog cells,,,24 (unit not given),,79.5 µM
COc1ccc(NC(=O)c2cn(Cc3ccc(F)cc3)cc(O)c2=O)cc1,HFF,cell growth or viability,MTS,7 days,,6.5 µM
N=C(N)N1CC23C4CCC5C4C4C2CCC4C53C1,dog cells,cytotoxicity,,3 (unit not given),,> 100 µM
CC[C@H](C)[C@H](NC(=O)[C@H](CC(=O)O)NC(=O)[C@H](Cc1ccccc1)NC(=O)[C@H](CC(C)C)NC(=O)CN)C(=O)N[C@H](C(=O)N[C@@H](CCCCN)C(=O)N[C@@H](CCCCN)C(=O)N[C@H](C(=O)N[C@@H](CC(C)C)C(=O)N[C@@H](CCCCN)C(=O)N[C@@H](CC(C)C)C(=O)N[C@@H](CC(C)C)C(=O)N[C@@H](CCCCN)C(N)=O)C(C)C)C(C)C,HDMEC,cytotoxicity,,,,85 µM
C=C(C)[C@@H]1CC[C@]2(C(=O)NC(CO)Cc3ccccc3)CC[C@]3(C)[C@H](CC[C@@H]4[C@@]5(C)CCCNC(C)(C)[C@@H]5CC[C@]43C)[C@@H]12 (stereo partly shown),HFF,cell growth or viability,ATP luminescence,,,3.24 µM
CC(C)C[C@@H]1NC(=O)[C@H](Cc2ccc(O)cc2)NC(=O)[C@H](C(C)C)NC(=O)[C@@H]2CSSC[C@@H]3NC(=O)[C@H](CO)NC(=O)[C@@H]4CSSC[C@H](NC(=O)[C@@H]5CCCN5C(=O)[C@H](Cc5ccccc5)NC(=O)CNC(=O)[C@H](CC(N)=O)NC(=O)[C@H](CCCCN)NC(=O)[C@H](Cc5ccc(O)cc5)NC(=O)[C@H](CSSC[C@H](NC(=O)[C@@H]5CCCN5C1=O)C(=O)N[C@@H](Cc1ccccc1)C(=O)N[C@@H]([C@@H](C)O)C(=O)N[C@@H](C)C(=O)N[C@@H](C)C(=O)N[C@@H](C)C(=O)NCC(=O)N4)NC(=O)[C@H](C(C)C)NC(=O)[C@H](CCCCN)NC(=O)[C@H](CO)NC(=O)[C@H](CCCCN)NC3=O)C(=O)NCC(=O)N[C@@H](CCC(=O)O)C(=O)N[C@@H](CO)C(=O)N2,HeLa,,resazurin,24 h,,3.99 ± 0.21 µM
Cc1ccc(NCCN(C)CCNc2ccnc3cc(Cl)ccc23)c2c(=O)c3ccccc3sc12,"Vero-E6, HeLa, HEK-293T, Huh7.5 cells average",cell viability,nuclei count,16 h,,> 25 µM
CC(C)C[C@H](NC(=O)[C@H](CCCCN)NC(=O)[C@H](CC(C)C)NC(=O)[C@]1(C)CCCC=CCCC[C@](C)(N)C(=O)N[C@@H](C)C(=O)N[C@@H](Cc2ccc(O)cc2)C(=O)N[C@@H](Cc2ccccc2)C(=O)N1)C(=O)N[C@@H](C)C(=O)NCC(=O)N[C@@H](CCCNC(=N)N)C(=O)N[C@@H](Cc1c[nH]c2ccccc12)C(N)=O,MT-4,,,,,25 µM
C1=[N+]2CCCC[N+]3=Cc4ccc5[n]4[Au-]23[n]2c1ccc2-c1nc2ccccc2nc1-5.F[P-](F)(F)(F)(F)F,breast cancer cell lines,,,,NCI60 panel mean,57 µM
NC12C3CCC4C3C3C(CCC31)C42,dog cells,cytotoxicity,,3 (unit not given),,> 100 µM
C=CC1=C(C)c2cc3nc(cc4[nH]c(cc5[nH]c(cc1n2)c(C)c5C=C)c(C)c4CCC(=O)OCc1ccc(-c2ccccc2)cc1)C(CCC(=O)O)=C3C,dog cells,,,,,237 ± 2.72 µM
CCC1(CC)C2CC3CC(C2)CC1(N(C)C)C3,dog cells,cytotoxicity,,3 (unit not given),,> 100 µM
O=C(O[C@@H]1Cc2c(O)cc(O)cc2O[C@H]1c1cc(O)c(O)c(O)c1)c1cc(O)c(O)c(O)c1,"Huh-7, mock-infected",,MTS,4 (unit not given),,12 ± 12 µM
CC(CCC(=O)[O-])C1CCC2C3CCC4CC(O)CCC4(C)C3CCC12C.C[N+](C)(C)CC(O)CC(=O)O (stereo not shown),A549-hACE2,,,,,> 50 µg/mL

# For quick reference, copied from above:
Structure (SMILES),cell line,effect on,technique,time,setting,CC50
Cc1ccc(NCCN(C)CCNc2ccnc3cc(Cl)ccc23)c2c(=O)c3ccccc3sc12,"Vero-E6, HeLa, HEK-293T, Huh7.5 cells average",cell viability,nuclei count,16 h,,> 25 µM
N=C(N)N1CC23C4CCC5C4C4C2CCC4C53C1,dog cells,cytotoxicity,,3 (unit not given),,> 100 µM
